Measured values gathered from unrelated publications.
RIPK1: Receptor-interacting serine/threonine-protein kinase 1 (RIPK1, Homo sapiens, UniProt Q13546)
UniProt Q13546, sequence (whole entry, looked up): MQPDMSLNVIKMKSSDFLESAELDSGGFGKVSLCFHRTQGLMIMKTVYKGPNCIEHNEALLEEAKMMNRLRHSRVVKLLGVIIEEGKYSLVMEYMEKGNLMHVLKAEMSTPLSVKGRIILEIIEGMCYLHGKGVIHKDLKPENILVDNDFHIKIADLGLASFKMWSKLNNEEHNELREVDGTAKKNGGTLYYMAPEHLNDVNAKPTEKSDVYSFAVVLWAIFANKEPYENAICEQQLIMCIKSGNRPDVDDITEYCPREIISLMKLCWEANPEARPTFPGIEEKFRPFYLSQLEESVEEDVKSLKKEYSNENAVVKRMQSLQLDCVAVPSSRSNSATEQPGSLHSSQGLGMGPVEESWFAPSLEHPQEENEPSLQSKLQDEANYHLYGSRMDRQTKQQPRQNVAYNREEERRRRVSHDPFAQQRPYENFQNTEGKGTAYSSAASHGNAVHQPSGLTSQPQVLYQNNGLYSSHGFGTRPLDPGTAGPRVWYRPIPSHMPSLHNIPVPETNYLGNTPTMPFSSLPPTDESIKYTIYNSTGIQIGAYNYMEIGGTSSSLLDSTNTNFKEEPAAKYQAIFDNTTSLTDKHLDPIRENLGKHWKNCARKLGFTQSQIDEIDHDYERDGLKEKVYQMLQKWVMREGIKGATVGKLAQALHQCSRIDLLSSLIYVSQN
UniProt P10415, sequence (whole entry, looked up): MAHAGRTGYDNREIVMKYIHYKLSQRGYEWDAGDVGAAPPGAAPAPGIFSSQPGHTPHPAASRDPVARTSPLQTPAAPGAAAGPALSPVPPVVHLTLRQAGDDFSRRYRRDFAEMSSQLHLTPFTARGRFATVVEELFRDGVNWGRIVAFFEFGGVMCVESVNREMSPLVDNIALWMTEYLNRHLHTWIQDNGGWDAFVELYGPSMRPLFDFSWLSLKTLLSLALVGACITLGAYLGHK
UniProt P21462, sequence (whole entry, looked up): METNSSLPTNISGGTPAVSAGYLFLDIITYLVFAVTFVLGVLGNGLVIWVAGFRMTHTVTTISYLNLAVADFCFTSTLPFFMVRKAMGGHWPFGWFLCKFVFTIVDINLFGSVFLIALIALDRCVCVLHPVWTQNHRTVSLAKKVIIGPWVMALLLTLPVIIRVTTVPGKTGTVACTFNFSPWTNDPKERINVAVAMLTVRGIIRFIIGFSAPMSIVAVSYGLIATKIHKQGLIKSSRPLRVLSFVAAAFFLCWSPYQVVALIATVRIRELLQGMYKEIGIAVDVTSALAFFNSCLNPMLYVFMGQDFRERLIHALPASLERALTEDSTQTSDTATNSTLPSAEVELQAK
UniProt P30542, sequence (whole entry, looked up): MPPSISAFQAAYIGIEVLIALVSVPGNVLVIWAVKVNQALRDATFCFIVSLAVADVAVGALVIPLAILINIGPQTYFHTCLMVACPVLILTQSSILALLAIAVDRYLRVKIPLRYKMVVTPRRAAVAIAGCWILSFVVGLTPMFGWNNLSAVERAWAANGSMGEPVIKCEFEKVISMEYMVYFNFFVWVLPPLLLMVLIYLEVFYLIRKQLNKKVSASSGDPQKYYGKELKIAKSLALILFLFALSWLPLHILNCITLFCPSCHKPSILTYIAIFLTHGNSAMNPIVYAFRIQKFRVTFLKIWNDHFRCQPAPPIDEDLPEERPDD
UniProt P24666, sequence (whole entry, looked up): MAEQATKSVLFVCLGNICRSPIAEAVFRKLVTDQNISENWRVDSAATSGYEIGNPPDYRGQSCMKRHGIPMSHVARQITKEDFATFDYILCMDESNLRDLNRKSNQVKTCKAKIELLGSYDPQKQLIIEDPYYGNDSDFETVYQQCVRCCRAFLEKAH
UniProt O14744, sequence (whole entry, looked up): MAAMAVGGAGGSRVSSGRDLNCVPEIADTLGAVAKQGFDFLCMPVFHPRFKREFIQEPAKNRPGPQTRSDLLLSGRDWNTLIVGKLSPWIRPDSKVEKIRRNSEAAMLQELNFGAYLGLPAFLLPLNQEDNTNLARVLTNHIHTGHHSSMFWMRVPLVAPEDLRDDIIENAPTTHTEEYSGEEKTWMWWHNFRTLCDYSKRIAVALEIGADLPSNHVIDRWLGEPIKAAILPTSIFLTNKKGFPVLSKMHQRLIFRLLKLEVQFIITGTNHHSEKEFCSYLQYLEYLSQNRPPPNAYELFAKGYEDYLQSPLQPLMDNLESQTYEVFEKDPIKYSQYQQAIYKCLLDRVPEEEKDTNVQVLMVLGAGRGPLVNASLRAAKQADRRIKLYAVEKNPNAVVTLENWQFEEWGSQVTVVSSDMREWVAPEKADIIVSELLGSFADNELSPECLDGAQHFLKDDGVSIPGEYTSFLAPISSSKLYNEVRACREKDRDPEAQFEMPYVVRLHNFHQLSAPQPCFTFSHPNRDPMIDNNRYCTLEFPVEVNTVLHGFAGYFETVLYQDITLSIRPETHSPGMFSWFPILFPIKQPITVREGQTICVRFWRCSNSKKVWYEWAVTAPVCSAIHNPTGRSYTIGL
UniProt Q16832, sequence (whole entry, looked up): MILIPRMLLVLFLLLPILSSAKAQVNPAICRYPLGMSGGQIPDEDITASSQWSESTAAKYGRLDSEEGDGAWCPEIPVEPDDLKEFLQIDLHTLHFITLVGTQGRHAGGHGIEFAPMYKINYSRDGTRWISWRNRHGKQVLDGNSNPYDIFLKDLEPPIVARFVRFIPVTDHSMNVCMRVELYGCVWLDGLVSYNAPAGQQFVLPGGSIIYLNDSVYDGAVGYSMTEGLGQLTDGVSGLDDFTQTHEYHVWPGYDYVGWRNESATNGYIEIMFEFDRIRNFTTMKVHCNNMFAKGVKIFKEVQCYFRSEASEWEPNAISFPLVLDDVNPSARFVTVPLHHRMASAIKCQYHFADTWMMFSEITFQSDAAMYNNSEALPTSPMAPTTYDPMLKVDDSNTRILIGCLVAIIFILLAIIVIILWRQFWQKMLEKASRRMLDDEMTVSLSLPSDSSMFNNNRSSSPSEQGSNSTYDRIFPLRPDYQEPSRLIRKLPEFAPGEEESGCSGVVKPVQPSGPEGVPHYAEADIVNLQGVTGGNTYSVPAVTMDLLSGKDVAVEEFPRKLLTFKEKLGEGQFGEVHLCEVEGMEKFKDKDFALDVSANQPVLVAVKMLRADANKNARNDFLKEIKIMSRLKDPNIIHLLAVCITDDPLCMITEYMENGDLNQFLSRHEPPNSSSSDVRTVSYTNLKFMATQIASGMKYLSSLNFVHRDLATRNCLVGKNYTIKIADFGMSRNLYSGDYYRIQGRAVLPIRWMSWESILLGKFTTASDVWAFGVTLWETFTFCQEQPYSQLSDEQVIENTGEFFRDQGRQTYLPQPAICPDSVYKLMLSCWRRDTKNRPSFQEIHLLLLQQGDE
UniProt P11229, sequence (whole entry, looked up): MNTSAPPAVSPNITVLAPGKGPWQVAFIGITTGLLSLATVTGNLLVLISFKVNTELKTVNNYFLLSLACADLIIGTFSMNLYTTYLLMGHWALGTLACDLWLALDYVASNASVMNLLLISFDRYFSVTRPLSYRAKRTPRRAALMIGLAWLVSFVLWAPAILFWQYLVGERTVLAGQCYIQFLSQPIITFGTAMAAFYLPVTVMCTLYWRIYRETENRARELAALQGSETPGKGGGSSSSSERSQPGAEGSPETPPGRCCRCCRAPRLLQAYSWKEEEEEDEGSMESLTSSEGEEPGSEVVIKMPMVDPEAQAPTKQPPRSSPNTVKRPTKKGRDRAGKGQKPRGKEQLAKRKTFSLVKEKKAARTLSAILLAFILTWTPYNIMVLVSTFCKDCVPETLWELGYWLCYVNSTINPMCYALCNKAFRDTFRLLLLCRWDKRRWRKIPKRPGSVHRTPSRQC

SMILES	target	test	system	setting	scale	selectivity ratio
CNC(=O)N1CCN(c2ccc(NC(=O)c3nc(N)sc3-c3ccccc3)cc2C(F)(F)F)CC1	DDR2 (Homo sapiens, UniProt Q16832)	binding, binding competition	–	–	baseline: DDR1 over DDR2	~10 fold
CC[C@H](C)[C@H](NC(=O)[C@H](CCC(=O)O)NC(=O)[C@@H]1CCCN1C(=O)[C@H](CCCNC(=N)N)NC(C)=O)C(=O)N[C@@H](Cc1c[nH]c2ccccc12)C(=O)N[C@@H](Cc1ccc(O)cc1)C(=O)N[C@@H](C)C(=O)N[C@@H](CCC(N)=O)C(=O)NCC(=O)N[C@@H](CC(C)C)C(=O)N[C@@H](CCCCN)C(=O)N[C@@H](CCCNC(=N)N)C(=O)N[C@@H](Cc1ccccc1)C(=O)NCC(=O)N[C@@H](CC(=O)O)C(=O)N[C@@H](CCC(=O)O)C(=O)N[C@@H](Cc1ccccc1)C(=O)N[C@@H](CC(N)=O)C(=O)N[C@@H](C)C(=O)N[C@@H](Cc1ccc(O)cc1)C(=O)N[C@@H](CCCCN)C(=O)N[C@@H](C)C(=O)N[C@@H](CCCNC(=N)N)C(N)=O	BCL2 (Homo sapiens, UniProt P10415)	binding, fluorescence polarization	–	–	baseline: Bcl-xL over Bcl-2	~1000 fold
COc1ccc(-c2nc(CSc3nc(N)c(C#N)c(-c4ccccc4)c3C#N)cs2)cc1	ADORA1 (Homo sapiens, UniProt P30542)	binding, radioligand competition	HEK293 membranes	with: [3H]DPCPX	baseline: A2A Ki over A1 Ki	29 fold
O=C(Cc1cccc(C(F)(F)F)c1)Nc1cc(Oc2cc3sc(NC(=O)C4CC4)nc3cc2Br)ccc1F	RIPK1	KINOMEscan binding Kd	–	–	baseline: RIPK1 over RIPK3, higher = more RIPK1-selective	> 28
N[C@@H](CCC(=O)N[C@@H](CS[Se]Cc1ccc(-c2cccc(C(O)c3ccc(Cl)c(Cl)c3)c2)cc1)C(=O)NCC(=O)O)C(=O)O (stereo partly shown)	ACP1 (Homo sapiens, UniProt P24666)	enzyme activity	–	with: pNPP, GSH 1 mM	baseline: IC50 ACP1 over STEP	8
Nc1nc2cnc(C(=O)N3CCOC[C@@H]3c3ccc(C(F)(F)F)cc3)cc2c2c1COC2	Protein arginine N-methyltransferase 5, MTA-bound (PRMT5, Homo sapiens, UniProt O14744)	binding, surface plasmon resonance	–	–	baseline: PRMT5-MTA over PRMT5-SAM affinity, higher = more MTA-selective	~60 fold
Cc1cc2nc(NC(=O)C3CC3)sc2c(C)c1Oc1ccc(F)c(NC(=O)Cc2cccc(C(F)(F)F)c2)c1	RIPK1	KINOMEscan binding Kd	–	–	baseline: RIPK1 over RIPK3, higher = more RIPK1-selective	> 100
CN1CCC=C(c2nsnc2OCCCN2CCN(CCCCC3CCN(CC(=O)N4c5ccccc5NC(=O)c5ccccc54)CC3)CC2)C1	CHRM1 (Homo sapiens, UniProt P11229)	radioligand competition binding	CHO cells	–	baseline: Ki M1 over Ki M2	23
O=C(Cc1cccc(C(F)(F)F)c1)Nc1cc(Oc2c(F)cc3nc(NC(=O)C4CC4)sc3c2Cl)ccc1F	RIPK1	KINOMEscan binding Kd	–	–	baseline: RIPK1 over RIPK3, higher = more RIPK1-selective	> 135
COc1cccc(Cc2cc(CCC(=O)NCCNc3cccc4c(S(=O)(=O)O)cccc34)nn(CC(=O)Nc3ccc(Br)cc3)c2=O)c1	FPR1 (Homo sapiens, UniProt P21462)	calcium mobilization, agonist	HL-60 transfected with FPR1 or FPR2	–	baseline: FPR1 over FPR2	100 fold

Excerpt of the above:
SMILES	target	test	system	setting	scale	selectivity ratio
CN1CCC=C(c2nsnc2OCCCN2CCN(CCCCC3CCN(CC(=O)N4c5ccccc5NC(=O)c5ccccc54)CC3)CC2)C1	CHRM1 (Homo sapiens, UniProt P11229)	radioligand competition binding	CHO cells	–	baseline: Ki M1 over Ki M2	23
